Assay results pooled from the literature.
Parts stem from different laboratories: compare values within a part only.

Series 1
Target: RING finger protein unkempt homolog, zinc fingers 1-6, GST-SBP tag (UNK, Homo sapiens, UniProt Q9C0B0, residues 30-357)
Chain of UniProt Q9C0B0 (30-357, looked up): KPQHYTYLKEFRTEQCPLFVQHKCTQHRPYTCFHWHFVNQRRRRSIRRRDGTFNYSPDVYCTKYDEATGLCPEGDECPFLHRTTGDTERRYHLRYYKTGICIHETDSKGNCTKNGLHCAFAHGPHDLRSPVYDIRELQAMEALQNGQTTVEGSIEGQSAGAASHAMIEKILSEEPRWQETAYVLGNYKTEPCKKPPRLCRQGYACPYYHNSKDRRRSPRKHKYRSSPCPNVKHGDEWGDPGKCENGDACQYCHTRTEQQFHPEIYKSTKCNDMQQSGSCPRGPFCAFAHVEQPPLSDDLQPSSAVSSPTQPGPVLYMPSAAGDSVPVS
Method: RNA Bind-n-Seq
Molecule type: RNA
Matrix: in vitro
Tested at: not given
Setting: RNA with constant flanks, human and mouse sites, ends assumed
Baseline: input RNA pool
Reading: higher = stronger binding
Measurement: bound/input enrichment
Constant ends, left off below: GGGAGUUCUACAGUCCGACGAUC … CAACAGAGGAUUGAGCAUCA
UCGCUUGCUCAGCGUUUGGAAAAACAUGAACUCAUUGAGUUCAGGAGAAUUGCUGCUUAUCUCUUCAAAGGCAACAAUCGCUGGAAACAGAGUGUAGAGCUGUGCAAGAAAGACAGCCUU: 0.151 ratio
UACAACAUGGCUUCUGUCGACUUUGAUGGCUUCUUUGCAGCCUUUCUUCCAGAGUUCCUGACUAGCUGUGAUGGUGUGGAUGCCAAUCAGAAAAACGUUCUGGGGCGGAAUUUCAAGAUG: 0.123 ratio
ACCACACCCCCUAAUCAAGGAAGGCCAGAUUCUCCAGUCUAUGCUAACCUACAGGAACUGAAAAUAUCACAGUCUGCUCUUCCUCCUCUUCCUGGGAGCCCAGCAAUUCAAGUUAAUGGG: 0.142 ratio
GGCACUGCACAUGAAGAUGCUGCAGCCUCCCCGUGUGGUCAUUCAAGAUCAACAGAAGGUUCCCUUCACCCUGGGGAUGUACAUAUCCAAAUAAACUCCGGACCAAAAGAAUAUUCUGAA: 0.178 ratio
UGGAAAAACUGAAGCCCGAGCCUGCCCACAGCUAUGCUUUGGCCUCUCCAGCAGGGUGCUCCUGCUCUGCACUCCAGAAACACCCUGACAGGCUCAGAGAGGAGAUGGAAACUGACAUAC: 0.269 ratio
ACUGAAAUACUUAAUGAGCAAUUACUUGAUUUUUAAUGAUGACUUCGAAGGAGUCAUCACUAGGUGCUUUGUCCUUUUUGUAUUCUAGUUGCACCCACCUCUUGGAUUGGAUAUAGCAAU: 3.92 ratio
UCGCUCUGCCAUCCACCCACCGCAGCAGCAUCUUCAAGAAUAAAGCAAUAUAGUUUACUACAUUUUUUUUUAAAAUUGAAGGUCAGCCAUGCUUUCUGUAUUAUAUUGCAUAUGAAAUUG: 0.367 ratio
UGGGUGUACACGUUCUCCCGAGCUGCCGUCCUCCUCAGCAUCGUAUACUUCUAUUCUUCUUUCAGUCGGUUUAUCAUGGUAAUGGGAGCCAUGCUGCUGGUUUAUUUACACCAAGCUGGA: 0.285 ratio
GAUGAUGGCAUUUCAGAUGAUGAAAUUGAAGGGAAAAGAACUUUUGACUUGGAAGAGAAGCUCCAAACCAACAAAUAUAAUGCCAAUUUUGUUACUUUUAUGGAGGGAAAAGAUUUUAAU: 0.248 ratio
CUUGGGGACCUUCGAACUCUGGAGCUGCUGCUUAUCUGUGCAGGCCAUCCUCAAUAUGAGGUAGUAGAAAUUUCAUUUAACUUUUGGUACCGACUGGGGGAACAUUUGUACAAAACUAAC: 0.328 ratio
CUGAACAAAAUUACCAAAAACCUAGGGUUUGGGAUGGGAAUUGAAUUCCGUGAAGGCUCCCUAGUAAUCAAUAGCAAAAAUCAAUACAAACUGAAGAAAGGAAUGGUUUUCAGCAUCAAU: 53.5 ratio

Series 2
Target: RNA binding protein fox-1 homolog 2, RRM domain, GST-SBP tag (RBFOX2, Homo sapiens, UniProt O43251-10, residues 100-194)
Method: RNA Bind-n-Seq
Molecule type: RNA
Matrix: in vitro
Tested at: 365 nM
Setting: natural RNA segment, single round, ends assumed
Baseline: no-protein control
Reading: higher = stronger binding
Measurement: RBNS enrichment (R)
Constant ends, left off below: GGGAGUUCUACAGUCCGACGAUC … UGGAAUUCUCGGGUGCCAA
Target sequence (chain): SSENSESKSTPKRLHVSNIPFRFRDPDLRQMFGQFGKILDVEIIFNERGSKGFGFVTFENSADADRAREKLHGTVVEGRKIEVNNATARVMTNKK
ACUCCCACCUGUACAUACAUUGUAUAGGCCACCUGUACAUAUCCCAGAGAACAAUCACUAUUCUUAAGCACUUUGAAGAUAUUUCUAUGUAAAUUAUUGUAAACUUUUUC: 0.375
AAAGUCACCUUUUUGCUGAUGAAAAGAACAUAUGUAUAAUAUAGUUGAACUCGAAGACAACUUAAAGUUUAGGGAAAGGAGAAUAUUUUUGGCAGAACAUCCGUCAGUAC: 0.438
GCUCAAAUAUUCCCCAGGGAGACUGCUGUGUGCUGCCCGCCUGCCUGCUGGCUCUCCCCCAGCCCCACAUCCCCUCUGGAAGAGAAUGUAAAAUAAACCUGGACACAAGG: 0.996
AACUUCGCCCAGUCACAGUGUUGUGACAUCCUAGAGGCUUGAGUGACAGCAGGUGACCUUGUCUGCCAAGAUCUUCCUUUUGAGUGUUUAAGCCCAACUACUUGUCAUAU: 0.228
GAGUUUGAAGAUUUUUCUUCUAGACAUCUCAAAAUGUGGUACUCAUACCAUCCACAUCAGAAUCCCUUGUAGGAUUUUCUAAAAUUACAGAUUGUUGAGCCUACCAUAGG: 0.301
CACUGUCUCCAUGUGAUUGUUACAAGCGUUUGUGCAGUUCUACUACAAUGAUAUCUGUAUGUCACUGUAAUGUUGGCCUUCGUGGGGAACCACACUUGGUGGAGCCCGAU: 0.318
CAGCUUUUGGGAUAGCCCCCGCUCUAGUUGUUCAGAACCUACAUGAAAACCAGGCUGCAUGUUCUGCUAUGUAUGUGUGGGAAGCCUAGGUCCAGCCUGUGUAUGUUCUU: 31
UUUUAAUAUUUGUGUUAAAGUAGACAUAGCUGAACUCACAUGGAAUCCUGGAGUUUUGUUAUCAGCAGCUUUGCAGUUUGGGAAACAAAGAAACCAAAGCUGAGUGUUUU: 0.352
CCUUAGCAGCUCAGUAGAUUCUUCAGGAUAACAGUAAAUGGCUUAUUGUAACUUGAAACACUAUAUUUUGUCUUUCCUGUGAGUAGCUCUAAGUUUGAGAGAAACCACUC: 0.372
AGGGAUAUACAAGGUCACAUUUCAGACACCCACUCGGCAUACCCUGCCGUACUGCAUCAUCAUUUGUUUUCUUUGUAGACACUGAAAUCCUAUCAGGAGGAUUCCUUCAC: 0.316
AAUUGUAUGCUUUCAGUAUUGUGUUAUAUGUUUCUAUGGCAACUUUGAAGUCAGUGGUUUAGAAAUGAGAUACCAAUGUUAAUGAAAAGUAUGUACUCUUUGCUUUUGCA: 4.26
GGACCUUAAAGUUACUGAGUUUAAACUACAAAUUGUAACAUCAUUACUGAACAUGUCCGCAUCAACCCUCUGAGAAUAACUUGGUCACUUUAUGAAGGGGCGUUUUUAAG: 0.362

Series 3
Target: Sal-like protein 4, full length isoform B (SALL4, Homo sapiens, UniProt Q9UJQ4-2, residues 1-616)
Method: universal PBM
Molecule type: double-stranded DNA, one strand shown
Matrix: in vitro
Tested at: not given
Setting: 8-mer, flanks averaged, mean of replicates
Reading: higher = stronger binding
Measurement: E-score
Residues (chain): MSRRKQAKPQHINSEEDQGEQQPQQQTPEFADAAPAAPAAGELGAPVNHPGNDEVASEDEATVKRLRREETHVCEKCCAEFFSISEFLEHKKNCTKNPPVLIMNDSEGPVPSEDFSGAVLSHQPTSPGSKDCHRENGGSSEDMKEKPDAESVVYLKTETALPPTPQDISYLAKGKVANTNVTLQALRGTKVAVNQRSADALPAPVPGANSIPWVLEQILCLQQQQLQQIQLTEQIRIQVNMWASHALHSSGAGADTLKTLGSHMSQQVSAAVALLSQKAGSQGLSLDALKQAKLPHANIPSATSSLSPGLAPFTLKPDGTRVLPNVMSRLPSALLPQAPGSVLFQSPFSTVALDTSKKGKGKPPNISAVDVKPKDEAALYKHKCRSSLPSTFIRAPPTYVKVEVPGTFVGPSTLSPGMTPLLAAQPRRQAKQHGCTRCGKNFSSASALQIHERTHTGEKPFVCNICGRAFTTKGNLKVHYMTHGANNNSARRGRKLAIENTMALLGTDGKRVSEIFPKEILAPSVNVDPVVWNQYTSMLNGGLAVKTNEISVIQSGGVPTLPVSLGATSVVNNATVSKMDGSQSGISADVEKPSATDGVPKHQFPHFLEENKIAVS
CGTGGTGC: -0.259
CACACGCG: -0.0294
AGTCGCTA: -0.0341
CCTGGTTA: 0.0119
AATCCAGG: -0.113
TATGTTGA: 0.338
AATCAGGG: -0.047
GGGCCACA: -0.204
GGGCTGCA: -0.11
GATCACCA: -0.0839
ATGCCCCC: -0.26
CGAGGGGA: -0.2
TCGTCAGA: -0.0693
CGTACTAG: -0.0413
TAAAAGGA: 0.209
AAGGATCT: -0.0566
GACTTCAC: -0.26
AACATACC: 0.121
GTCCGCAC: -0.217
GTTCGCGA: -0.0301
ATGATAAG: 0.26
TCTATGAA: 0.28
AGAGCTGG: -0.245

Series 4
Target: Fragile X messenger ribonucleoprotein 1, C-terminal low-complexity region (Fmr1, Mus musculus, UniProt P35922)
Method: RNA Bind-n-Seq
Molecule type: RNA
Matrix: in vitro
Tested at: 200 nM
Setting: whole 134-nt RNA, ends assumed
With: 150 mM KCl
Baseline: input library
Reading: higher = stronger binding
Measurement: log2 enrichment
Constant ends, left off below: GGGAGUUCUACAGUCCGACGAUC … UGGAAUUCUCGGGUGUCAAGG
CCUGUGCUACACAUCGUAUGUACCGAAUCGGGAAAAAAGGGGAAAAAAGGGGAAAAAAGGAAAGUAUUAUGUUACGCCGUUCGGAUCUGC: -0.52
UCCUGUGCUACACAUCGUAUGUACCGAAUCGGGUUUUUUUGGGUUUUUGGGAAAAAGGGAAAGUAUUAUGUUACGCCGUUCGGAUCUGCA: -0.171
CAAGUCCUGUGCUACACAUCGUAUGUACCGAAUCGGGUUUGGGUUUGGGGUUUGGGAAAGUAUUAUGUUACGCCGUUCGGAUCUGCACUU: 0.901
CUGUGCUACACAUCGUAUGUACCGAAUCGGGUUUUUUUGGUUUUUUUGGGGUUUUUUUGGGAAAGUAUUAUGUUACGCCGUUCGGAUCUG: -0.866
AGUCCUGUGCUACACAUCGUAUGUACCGAAUCAAACCCCCAAAUUUAAACCCCCAAAAAAGUAUUAUGUUACGCCGUUCGGAUCUGCACU: -0.247
UUAGGUGGCUCCAGGAUGUAUUUAACGUGCCCUUGGUCAUCCAGAUGACGGAUGACGAGAAGUAUCUGUGGAAGGACCUGACCCUGGACC: -0.725
CUCAAGUCCUGUGCUACACAUCGUAUGUACCGAAUCGGGGAGGGGAGGGGAGGAAAGUAUUAUGUUACGCCGUUCGGAUCUGCACUUCCA: 0.744
GUCCUGUGCUACACAUCGUAUGUACCGAAUCGGCCCCCGGGGCCCCCGGGGCCCCCGGAAAGUAUUAUGUUACGCCGUUCGGAUCUGCAC: -1.57
GCAGGAAGUAAAAACAAAUGGAAAUGCUUCGGAUAGUGGCAGGGGUGGGGGUUAAAAAGGAAAGGGUGGGAUGGGAGUGGGUAAAGAGUU: 0.112
CCUCAAGUCCUGUGCUACACAUCGUAUGUACCGAAUCGGGGUGGGUGGGUGGAAAGUAUUAUGUUACGCCGUUCGGAUCUGCACUUCCAG: 1.47

For quick reference, copied from above (series 3):
CCTGGTTA: 0.0119
AATCCAGG: -0.113
TATGTTGA: 0.338
AATCAGGG: -0.047
GGGCCACA: -0.204
GGGCTGCA: -0.11
